# Measurements gathered from unrelated publications.
# Each line is one published result; not all experiments were run side by side. “And” joins repeats or separate records; there may be more than shown. Numbers after ± are the reported error.
Compound,organism,assay,test system,setting,scale,measurement,value
CC(C)[C@H](NC(=O)OCc1ccccc1)C(=O)N(C)[C@@H](Cc1ccc(OC(C)(C)C)cc1)C(=O)Nc1ccccc1C(=O)N[C@@H](C)C(=O)O,Candida albicans,"potentiator, broth microdilution",ATCC 90029,"4.0 µg/mL, together with: amphotericin B",baseline: amphotericin B alone,fold potentiation,8
N=C(N)NCCC[C@@H]1NC(=O)[C@H](CCCNC(=N)N)NC(=O)[C@@H](CCCNC(=N)N)NC(=O)[C@@H](CCCNC(=N)N)NC(=O)[C@@H](C(c2ccccc2)c2ccccc2)NC(=O)[C@H](Cc2c[nH]c3ccccc23)NC(=O)[C@@H](C(c2ccccc2)c2ccccc2)NC1=O,Candida albicans,,ATCC 60193,"4 x MIC, 8 h",,reduction of viable cells,> 85%
C=C[C@]1(C)C[C@@H](OC(=O)CSc2ccc(NC(=O)c3ccco3)cc2)[C@]2(C)[C@H](C)CC[C@]3(CCC(=O)[C@H]32)[C@@H](C)[C@@H]1O,Mycoplasma gallisepticum,,infected chickens,"intramuscular, 70 mg/kg daily x3, scale 0 to 4",direction not given,air sac lesion score,1 and 3 and 2 and 0
C#CCO/N=C(\C(=O)N[C@@H]1C(=O)N(OS(=O)(=O)O)C1(C)C)c1nsc(N)n1,Citrobacter freundii,agar dilution,"ATCC 43864, susceptible",,,MIC,8 µg/mL
CNCc1ccc2c(c1)N(C(=O)OCc1c(F)c(F)c(F)c(F)c1F)[C@H](CNC(=N)N)[C@H]2NC(=O)C(=O)Nc1ccc(Cl)c(F)c1,HIV-1,"pseudovirus infection, Env pseudovirus neutralisation","TZM-bl, clade B T/F isolate d15_410_787",,,IC50,197 nM
Cc1cccc2c1N(C(=O)n1ccnn1)CC2,Arabidopsis thaliana,,"wild type, seedlings","0.1 µM, continuous red light, together with: 0.3 µM karrikin KAR2",,hypocotyl length,12.9 mm
COC1C=COC2(C)Oc3c(C)c(O)c4c(c3C2=O)C2=NC3(CCN(CC(C)C)CC3)NC2=C(NC(=O)C(C)=CC=CC(C)C(O)C(C)C(O)C(C)C(OC(=O)c2cccnc2)C1C)C4=O (stereo not drawn),Mycobacteroides abscessus,"intracellular growth, Hill fit","THP-1 derived macrophages, ATCC 19977",,,IC50,34 nM
FC(F)(F)c1cccc(CNc2nc(NC3CCN(Cc4ccccc4)CC3)c3nc[nH]c3n2)c1,Cryptococcus neoformans,"RNA-seq, refers to: CNAG_06530",wild type,"48 µg/mL, 3 h",baseline: untreated wild type,log2 fold change,-0.079
Cc1ccc(N(C)C(=O)[C@H](Cc2ccccc2)NC(=O)Cc2c[nH]c3ccc(O)cc23)cc1,human immunodeficiency virus 1,viral replication,NL4-3 with subtype AG gag/pol,,,EC50,100 ± 30 nM
Fc1ccc2c(c1)c1nc3ccc(Br)cc3c-1cn2Cc1cn(-c2ccccc2I)nn1,Giardia duodenalis,"UHPLC-Q-TOF-MS metabolomics, refers to: PE(P-19:1(12Z)/0:0)",trophozoites,"IC50 concentration, 0.1413 h, RT 8.48 min, m/z 478.3",baseline: 0.25% DMSO vehicle,fold change,2.98
c1ccc(CC(c2c[nH]c3ccccc23)c2c[nH]c3ccccc23)cc1,Clostridioides difficile,"microbial growth, absorbance",,,,IC50,> 50000 nM
C=C(NC(=O)c1csc(-c2nc3c(cc2O)-c2nc(cs2)C(=O)NC(C(C)O)C(=O)NC(=C(C)OC)c2nc(cs2)C(=O)NC2c4nc(cs4)C(=O)NC(COC(=O)c4c5c6c(cccc6n4O)COC(=O)C(OC4CC(C)(O)C(N(C)C)C(C)O4)C2OC5)c2nc-3cs2)n1)C(N)=O (stereo not drawn),Staphylococcus aureus,,"MRSA, 10 isolates",pH 8.5,,MIC50,0.0312 µg/mL

# Some of these lines once more:
Compound,organism,assay,test system,setting,scale,measurement,value
Fc1ccc2c(c1)c1nc3ccc(Br)cc3c-1cn2Cc1cn(-c2ccccc2I)nn1,Giardia duodenalis,"UHPLC-Q-TOF-MS metabolomics, refers to: PE(P-19:1(12Z)/0:0)",trophozoites,"IC50 concentration, 0.1413 h, RT 8.48 min, m/z 478.3",baseline: 0.25% DMSO vehicle,fold change,2.98
